Published values from different studies.
Compare with care: the assays were run in different laboratories. ± gives the spread as reported.

SMILES | assay | test system | conditions | how to read | endpoint | result
COc1ccccc1[C@H](Cn1c(=O)n(C(C)(C)C(=O)O)c(=O)c2c(C)c(-c3ncco3)sc21)OC1CCOCC1 |  | human | 200 mg, post-treatment |  | serum adiponectin | 6.23 ± 1.81 µg/mL
CC1(C)CCC(c2ccc(Cl)cc2)=C(CN2CCN(c3ccc(C(=O)NS(=O)(=O)c4ccc(N[C@H](CCN5CCOCC5)CSc5ccccc5)c(S(=O)(=O)C(F)(F)F)c4)cc3)CC2)C1 | cell kill, PI exclusion flow cytometry | normal CD3+ T lymphocytes, human, peripheral blood | 24 h |  | EC50 | 236 nM
COc1cc(/C=C/C(=O)N2CCC=CC2=O)cc(OC)c1OC | qRT-PCR, measured: Glut1 | nude mouse MDA-MB-468 xenograft, tumour | 15 mg/kg, 21 days, normalised to beta-actin, unit not given | relative to: vehicle | mRNA level | 0.952
CN(C(=O)n1cnc(-c2ccc[n+]([O-])c2)c1)C1CCCCC1 | measured: PEA | human, plasma | 40 mg single dose |  | AUC(0-t) | 370 ng·h/mL
Cc1ccc(C(=O)OCc2ccc([C@@H](CN)C(=O)Nc3ccc4cnccc4c3)cc2)c(C)c1 | tonometry | NZW rabbit, magnetic bead-induced ocular hypertension | ocular, 0.02%, 48 h |  | IOP | 36.9 mmHg
CCc1c(C)nc(-c2ccc(Cl)s2)nc1Nc1ccc(CC(=O)O)cc1 |  | C57BL/6J mouse, high-fat diet MASH model | intraperitoneal, 0.3 mg/kg daily, 60% fat diet for 12 weeks, dosed final four weeks, with: glucose 2 g/kg ip | relative to: untreated | glucose tolerance AUC | no effect
COc1nc(-c2cccc(-c3ccccc3)c2C)ccc1CNCCNC(=O)CCCCCCCCCCC(=O)N1CCN(CCNC(=O)c2cc3c(=O)n4cccc(C)c4nc3n(CCc3cccs3)c2=N)CC1 | measured: IFN-γ | mouse tumour model, tumour and peripheral blood | dose not given | relative to: vehicle | cytokine level | increased
CCCCC1(CCCC)CN(c2ccccc2)c2cc(SC)c(OCC(=O)N[C@@H](C(=O)NCC(=O)O)c3ccccc3)cc2S(=O)(=O)C1 | measured: 7α-hydroxy-4-cholesten-3-one | human, plasma | 15 mg once daily, day 14 |  | plasma C4 | 75.9 ng/mL
Cc1cc(F)cc2c(CCC(=O)N[C@@H]3C(=O)NC[C@H]3O)c(-c3ccc(F)cc3)[nH]c12 |  | mice, APOL1 G2, single copy | oral, 30 mg/kg twice daily, day 13, dosing from day 6, with: IFNγ plasmid injection |  | UACR | 377 µg/mg
Cc1cc(NS(=O)(=O)c2ccc(N=NN(O)c3ccccc3)cc2)no1 | carrageenan-induced paw edema | Wistar rat | oral, 100 mg/kg, 4 h after carrageenan, with: carrageenan 1% subplantar | higher = more edema | paw edema volume | 4.21 ± 0.8 a.u.
CCO[C@H]1CCN(Cc2c(OC)cc(C)c3[nH]ccc23)[C@H](c2ccc(C(=O)O)cc2)C1 |  | PNH patients, blood | oral, 25 mg then 100 mg, week 8, mean absolute change | relative to: baseline | C3d-positive type III RBCs | -1.3%
NC(=O)c1cnc2[nH]ccc2c1N[C@@H]1[C@@H]2CC3C[C@H]1C[C@@](O)(C3)C2 | CD8+ effector memory T cells, flow cytometry | Japanese humans, peripheral blood | 200 mg single dose | relative to: baseline | percent change | -0.43%
O=C(OC(C(F)(F)F)C(F)(F)F)N1CCN(Cc2cccc(Oc3ccccc3)c2)CC1 | PET | rhesus monkey, cerebellum | intravenous, 0.01 mg/kg, pretreatment, with: [18F]T-401 |  | tracer distribution volume | 6.77 mL/cm3
Cc1noc(NS(=O)(=O)c2ccc(N=NN(C)O)cc2)c1C | carrageenan-induced paw edema | Wistar rat | oral, 100 mg/kg, 1 h after carrageenan, with: carrageenan 1% subplantar | higher = more edema | paw edema volume | 5.6 ± 0.43 a.u.
CCCNc1nc(Nc2ccc(C#N)cc2)ncc1C#CCCCNC(=O)[C@H](C)N(C)C(=O)/C=C/CN(C)C |  | human | 50 mg twice daily, end of cycle 2 |  | marrow blasts | 3%
CSCCNc1nc(SCCC(F)(F)F)nc2c1ncn2[C@@H]1O[C@H](COP(=O)(O)OP(=O)(O)C(Cl)(Cl)P(=O)(O)O)[C@@H](O)[C@H]1O | ADP-induced platelet aggregation, Multiplate, AUC >46 U | human patients, whole blood | dose not given, 1 h |  | patients with high reactivity | 11.4%
CC#CC(=O)N[C@H]1CCCN(c2c(F)cc(C(N)=O)c3[nH]c(C)c(C)c23)C1 | measured: IgM | human | 3 mg once daily, day 21 | relative to: baseline | serum immunoglobulin | -4.6 % change
Cc1n[nH]c2ccc(-c3cc(OC[C@@H](N)Cc4ccccc4)cnc3-c3ccoc3)cc12 | kinase binding, competitor, MIB/MS competition, measured: RIM11 | Candida albicans cell lysate | 10 µM | relative to: DMSO | log2 fold change | -3.89
COc1cc2cc(-c3ccc(CC(=O)Nc4cc(C(C)(C)C(F)(F)F)no4)cn3)cnc2cc1OC | RECIST v1.1 | human RET-altered solid tumours | 12 75 mg tablets, phase I |  | best overall response SD | 67%
O=C(COc1ccc(Cl)cc1)NC12CC(c3nnc([C@H]4C[C@@H](OC(F)(F)F)C4)o3)(C1)C2 |  | healthy human, PBMC | 200 mg once daily, day 15, 24 h post-dose, median, with: sodium arsenite ex vivo | relative to: baseline | ATF4 protein change | -72.6%

SMILES | assay | test system | conditions | how to read | endpoint | result
Cc1cccc(N(O)N=Nc2ccc(S(=O)(=O)Nc3nccs3)cc2)c1 | carrageenan-induced paw edema | Wistar rat | oral, 100 mg/kg, 4 h after carrageenan, with: carrageenan 1% subplantar | higher = more edema | paw edema volume | 4.51 ± 0.64 a.u.
COc1cc(F)c([C@@H]2CNC(=O)[C@H]2NC(=O)Nc2ccccc2)c(F)c1 |  | rat, myocardial infarction | 1 mg/kg, 1008 h, 6 weeks after occlusion |  | isovolumic relaxation time | 14 ± 3 ms
CN(C)C(=O)c1cc2cnc(Nc3ccc(N4CCNCC4)cn3)nc2n1C1CCCC1 | RNA sequencing, measured: HALLMARK_EPITHELIAL_MESENCHYMAL_TRANSITION | MB002 tumour | concentration not given | relative to: vehicle, direction not given | GSEA enrichment score | -0.321
C[C@H]1C[C@H]2CSC(N)=N[C@@]2(c2nc(NC(=O)c3ccc(OC(F)F)cn3)cs2)CO1 | measured: Aβx-40 | healthy adults, plasma | 12 mg single dose, 48 h post-dose | relative to: placebo | percent change from baseline | -40%
O=C1Nc2ccccc2C1=Cc1ccccn1 | platelet aggregation | platelet-rich plasma | 10 µM, with: ADP 5 µM |  | inhibition | 55.6%
C=CCn1c(=O)c2cnc(Nc3ccc(N4CCN(C)CC4)cc3)nc2n1-c1ccc2c(n1)[C@@](O)(CC)CC2 |  | NOD/SCID mouse, A-427 xenograft | oral, 80 mg/kg, 5 d on 2 d off ×4, day 29 | relative to: vehicle | tumour volume | 115%
Cn1cc(Nc2nccc(-c3ccc4c(c3)CN(C3COC3)CC[C@H]4NC(=O)c3cn(C(C)(C)C)nn3)n2)cn1 | measured: RANK signaling in osteoclasts | splenic B cells, mice | 30 mg/kg, IgD-activated in vivo | relative to: vehicle, direction not given | pathway activation z-score | 3.9
CN(O)N=Nc1ccc(S(=O)(=O)Nc2nccs2)cc1 | carrageenan-induced paw edema | Wistar rat | oral, 100 mg/kg, 3 h after carrageenan, with: carrageenan 1% subplantar | higher = more edema | paw edema volume | 5.22 ± 1.1 a.u.
CC(C)NCC(O)c1ccc(O)c(O)c1 (stereo not drawn) |  | ventricular cardiomyocytes, C57BL/6 mouse | dose not given, 0.156 s |  | sarcomere length | 1.55 µm
N#Cc1ccn2c(-c3ccncc3)c(-c3ccc(F)cc3)nc2c1 | kinase binding, competitor, MIB/MS competition, measured: CTK1 | Candida albicans cell lysate | 1 µM | relative to: DMSO | log2 fold change | -0.0388
CCN(O)N=Nc1ccc(S(=O)(=O)Nc2cc(C)on2)cc1 | carrageenan-induced paw edema | Wistar rat | oral, 100 mg/kg, 0 h (baseline), with: carrageenan 1% subplantar | higher = more edema | paw edema volume | 3.4 ± 0.12 a.u.
COc1nc(NCc2cn(-c3ccc(NC(=O)c4ccc(Br)cc4)cc3)nn2)nc(OC)n1 | cell viability, MTT | normal colonocytes, rat | 72 h |  | IC50 | 15.7 ± 5.32 nM
COc1ccc(-c2cncc(N[C@@H](C)c3cccc(NC(=O)c4cncc(C)c4)c3)n2)cc1OC | measured: rno-miR-193-3p | rat SU5416/hypoxia model, lung | dose not given | relative to: SU5416/hypoxia vehicle | fold change | 1
COc1ncnn2ccc(-c3cnc4nc(C)n(Cc5nnc([C@@H](C)F)o5)c4c3)c12 |  | Homo sapiens, relapsed or refractory AML or MDS | dose not given, splicing factor mutation-negative |  | marrow complete response as best response | 0%
OC(CCN1CCCCC1)(c1ccccc1)C1CC2C=CC1C2 (stereo not drawn) | resting-state EEG | healthy elderly humans | oral, 4 mg, eyes closed, LS mean | relative to: baseline | change, Gamma EEG power, in O2-Pz | -0.7%
NCC(=O)Nc1cncc(-c2nn3c(=O)cc(N4CCNCC4)nc3s2)c1 | ADP-induced platelet aggregation, light transmission aggregometry | stable CAD patients on aspirin | subcutaneous, 0.075 mg/kg, 24 h post-dose, with: ADP 20 µM | relative to: placebo | inhibition of platelet aggregation | -9.13%
O=C(O)CNC(=O)Cc1ccccc1 |  | ventricular cardiomyocytes, C57BL/6 mouse | dose not given, 0.092 s |  | sarcomere length | 1.72 µm
O=S(=O)(Nc1nccs1)c1ccc(N=NN(O)c2ccccc2)cc1 | carrageenan-induced paw edema | Wistar rat | oral, 100 mg/kg, 3 h after carrageenan, with: carrageenan 1% subplantar | higher = more edema | paw edema volume | 5.78 ± 0.41 a.u.
N#Cc1ccc2c(c1)[C@H]1CCCN(C(=O)c3ccc4[nH]cnc4c3)[C@H]1C2 | measured: HDL | human | 240 mg once daily, day 28, adjusted mean |  | change from baseline | 2.4 mg/dL

Repeated from above:
SMILES | assay | test system | conditions | how to read | endpoint | result
O=C(COc1ccc(Cl)cc1)NC12CC(c3nnc([C@H]4C[C@@H](OC(F)(F)F)C4)o3)(C1)C2 |  | healthy human, PBMC | 200 mg once daily, day 15, 24 h post-dose, median, with: sodium arsenite ex vivo | relative to: baseline | ATF4 protein change | -72.6%
Cc1cccc(N(O)N=Nc2ccc(S(=O)(=O)Nc3nccs3)cc2)c1 | carrageenan-induced paw edema | Wistar rat | oral, 100 mg/kg, 4 h after carrageenan, with: carrageenan 1% subplantar | higher = more edema | paw edema volume | 4.51 ± 0.64 a.u.
COc1cc(F)c([C@@H]2CNC(=O)[C@H]2NC(=O)Nc2ccccc2)c(F)c1 |  | rat, myocardial infarction | 1 mg/kg, 1008 h, 6 weeks after occlusion |  | isovolumic relaxation time | 14 ± 3 ms
CN(C)C(=O)c1cc2cnc(Nc3ccc(N4CCNCC4)cn3)nc2n1C1CCCC1 | RNA sequencing, measured: HALLMARK_EPITHELIAL_MESENCHYMAL_TRANSITION | MB002 tumour | concentration not given | relative to: vehicle, direction not given | GSEA enrichment score | -0.321
